Published values gathered from unrelated publications.
Several values in a cell are separate wells, animals, samples, runs or records. ± gives the spread as reported.
UniProt Q92918, sequence (whole entry, looked up): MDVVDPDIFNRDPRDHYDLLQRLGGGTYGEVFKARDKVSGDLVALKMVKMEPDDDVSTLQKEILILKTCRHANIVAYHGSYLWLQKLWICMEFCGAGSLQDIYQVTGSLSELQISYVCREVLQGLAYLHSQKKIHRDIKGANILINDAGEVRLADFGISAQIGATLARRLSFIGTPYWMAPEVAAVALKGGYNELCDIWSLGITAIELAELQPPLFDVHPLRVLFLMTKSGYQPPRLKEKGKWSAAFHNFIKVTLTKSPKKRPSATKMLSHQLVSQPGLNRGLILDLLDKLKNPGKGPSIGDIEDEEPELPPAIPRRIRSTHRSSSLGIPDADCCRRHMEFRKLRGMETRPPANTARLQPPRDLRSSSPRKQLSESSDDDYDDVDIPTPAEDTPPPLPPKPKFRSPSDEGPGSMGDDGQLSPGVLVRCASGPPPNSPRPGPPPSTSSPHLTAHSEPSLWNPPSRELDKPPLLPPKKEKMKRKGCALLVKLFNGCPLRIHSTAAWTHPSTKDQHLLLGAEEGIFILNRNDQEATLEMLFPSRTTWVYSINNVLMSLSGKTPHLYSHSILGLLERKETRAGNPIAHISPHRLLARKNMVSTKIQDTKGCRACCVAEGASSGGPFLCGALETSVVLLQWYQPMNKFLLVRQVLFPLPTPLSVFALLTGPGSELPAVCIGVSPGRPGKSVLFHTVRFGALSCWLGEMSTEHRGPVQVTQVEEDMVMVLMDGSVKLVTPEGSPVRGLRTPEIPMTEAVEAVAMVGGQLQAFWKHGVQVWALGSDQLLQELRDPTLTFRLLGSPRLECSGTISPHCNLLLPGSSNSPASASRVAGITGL

Compound	tested on	assay	test system	setting	scale	measurement	value
CCCC[C@@H]1NC(=O)[C@H](Cc2ccc(O)cc2)NC(=O)[C@@H]2CCCN2C(=O)[C@H](CC(=O)O)NC(=O)[C@H](C)NC(=O)[C@H](Cc2ccccc2)NC(=O)[C@@H]2CSCCC(=O)N3CN(CN(C3)C(=O)CCSC[C@@H](C(=O)N[C@@H](C)C(N)=O)NC1=O)C(=O)CCSC[C@H](NC(C)=O)C(=O)N[C@@H](CC(C)(C)C)C(=O)N1CCC[C@H]1C(=O)N[C@@H](CCC(=O)O)C(=O)N[C@H](CCCCNC(=O)CCc1cn(CCOCCOCCOCCN(CCOCCOCCOCCC(=O)N[C@H]3CSCCC(=O)N4CN5CN(C4)C(=O)CCSC[C@H](NC(=O)[C@@H](CC(=O)O)NC(=O)[C@H](Cc4cccc6ccccc46)NC(=O)[C@@H]4CCCN4C3=O)C(=O)N[C@@H](CCSC)C(=O)N[C@@H](CCCCNC(=N)N)C(=O)N[C@@H](CC(=O)O)C(=O)N[C@@H](Cc3c[nH]c4ccccc34)C(=O)N[C@@H](CO)C(=O)N[C@@H]([C@@H](C)O)C(=O)N3CCC[C@H]3C(=O)N3C[C@H](O)C[C@H]3C(=O)N[C@@H](Cc3c[nH]c4ccccc34)C(=O)N[C@H](C(N)=O)CSCCC5=O)CCOCCOCCOCCn3cc(CCC(=O)NCCCC[C@H]4NC(=O)[C@H](CCC(=O)O)NC(=O)[C@@H]5CCCN5C(=O)[C@H](CC(C)(C)C)NC(=O)[C@@H](NC(C)=O)CSCCC(=O)N5CN6CN(C5)C(=O)CCSC[C@H](NC(=O)[C@H](Cc5ccc(O)cc5)NC(=O)[C@@H]5CCCN5C4=O)C(=O)N[C@@H](Cc4ccccc4)C(=O)N[C@@H](C)C(=O)N[C@@H](CC(=O)O)C(=O)N4CCC[C@H]4C(=O)N[C@@H](Cc4ccc(O)cc4)C(=O)N[C@@H](CCCC)C(=O)N[C@H](C(=O)N[C@@H](C)C(N)=O)CSCCC6=O)nn3)nn1)C(=O)N1CCC[C@H]1C(=O)N[C@@H](Cc1ccc(O)cc1)C(=O)N2		NanoString, item: Thbd-mRNA	mouse bearing MC38-Nectin-4 tumour, circulating white blood cells	5 mg/kg, 24 h after dosing, unit not given	relative to: vehicle	mRNA level	0.461
CCCCCCCCCCCC1CC(=O)NC(CC(N)=O)C(=O)NC(Cc2ccc(O)cc2)C(=O)NC(CC(N)=O)C(=O)NC(CCC(N)=O)C(=O)N2CCCC2C(=O)NC(CC(N)=O)C(=O)NC(CO)C(=O)N1 (stereo not drawn)		calcein leakage	DOPC/DOPG/CHOL liposomes	concentration not given, with: 40 mM CaCl2		fusion time constant	79 ± 6 min
O=C1NC2(CC2)COc2ncc(F)cc2[C@H]2COCCN2c2ccn3ncc1c3n2			Sprague-Dawley rat, male, serum	oral, 5 mg/kg/day, end of recovery, 4-week subacute toxicity		serum triglycerides	0.37 ± 0.08 mmol/L
CC[C@H](C)[C@H](NC(=O)[C@H](CO)NC(=O)[C@H](Cc1ccc(O)cc1)NC(=O)[C@H](Cc1ccc(O)cc1)NC(=O)[C@H](CC(N)=O)NC(=O)CNC(=O)[C@H](CO)NC(=O)[C@H](Cc1ccc(O)cc1)NC(=O)[C@H](CO)NC(=O)[C@H](CO)NC(=O)[C@H](CC(N)=O)NC(=O)COCCOCCNC(=O)CN1CCN(CC(=O)O)CCN(CC(=O)O)CCN(CC(=O)O)CC1)C(=O)N[C@@H](CC(C)C)C(N)=O [copper-64 labelled]		dynamic PET	mouse, tamoxifen-induced PDAC, blood	intravenous, 0.1 µg/mouse, 8.5 min		tumour uptake	8.92 %ID/mL
O=C(O)c1ccc(-c2nc(-c3ccccc3Cl)c3sccn23)cc1		histology	mouse	dose not given, day 11, with: 5-fluorouracil		bone marrow cellularity	95% and 90%
Cc1ccc(C2=CC(C)(C)Oc3ccc(-c4ccc(-c5ccc(C(=O)O)cc5)[nH]4)cc32)cc1			CD1 mouse, male	20 mg/kg, 4 weeks after treatment, dosed for 2 weeks		testis weight	0.116 g and 0.095 g and 0.088 g and 0.0987 g and 0.0915 g
COc1ccccc1-c1n[nH]c2nc(NC3CCN(C(=O)Cc4ccc(F)cc4F)CC3)ncc12		bead binding, competition bead pull-down, item: LINJ.36.0800	Leishmania donovani axenic amastigote extract	10 µM	relative to: vehicle	relative abundance	0.87
CC(C)(C)C(=O)OCOP(=O)(OCOC(=O)C(C)(C)C)C1CCCN(O)C1=O (stereo not drawn)	EKVX					log TGI	-4.9 log M
Cc1ccc(S(=O)(=O)N2CC2C(=O)N(C)C)cc1 (stereo not drawn)			mouse, Lewis lung carcinoma	intraperitoneal, 170 mg/kg, 16 doses, day 16		tumour volume	1120 mm3
O=[N+]([O-])[O-].O=c1c(C=NN=C([S-])Nc2ccccc2)coc2ccccc12.[Cu+2].c1cnc2c(c1)c1nccnc1c1cccnc12		DNA cleavage	supercoiled pUC19 DNA	100 µM, 4 h, 37 °C, no reducing agent, with: DNA 40 µM		supercoiled DNA form	84%
Cc1cc(C(=O)Nc2nc3cccc(C)c3n2[C@H]2CCCCN(C(=O)/C=C/CN(C)C)C2)ccn1	Trypanosoma brucei		STIB795, mouse acute HAT model	oral, 25 mg/kg once daily for 4 days, day 14	relative to: mice	survival	83.3%
CN(C)[C@H]1C[C@@]23CC[C@@]4(O2)C(=CC[C@]2(C)[C@@H](c5ccc6ccncc6c5)CC[C@H]24)C=C3[C@@H](O)[C@@H]1O	MAP4K1 (Homo sapiens, UniProt Q92918)	ATP probe labelling, inhibitor, KiNativ profiling		1 µM		inhibition	-19.8%
CC(C)C[C@@H]1NC(=O)[C@@H](Cc2c[nH]c3ccccc23)NC(=O)[C@H](CCCNC(=N)N)NC(=O)[C@@H](CCC(=O)O)NC(=O)[C@H](CCC(N)=O)NC(=O)[C@@H](CCC(=O)O)NC(=O)[C@H](CCCNC(=N)N)NC(=O)[C@@H](Cc2c[nH]c3ccccc23)NC1=O		Luminex, item: IL-15	LDLr-/- mice, Western diet, liver	dose not given, 4 weeks		cytokine level	960 ± 370 pg/g tissue
CC(C)[C@@H]1NC(=O)[C@@H]2CCCN2C(=O)[C@@H](C(C)C)NC(=O)[C@H]2CCCN2C(=O)[C@H](C(C)C)NC(=O)[C@@H]2CCCN2C(=O)[C@@H](C(C)C)NC(=O)[C@H]2CCCN2C(=O)[C@H](C(C)C)NC(=O)[C@@H]2CCCN2C(=O)[C@@H](C(C)C)NC(=O)[C@H]2CCCN2C1=O			sheep lipid bilayer	10 µM, pH 7.4, 23 °C, with: Rb cation		transference number	0.87
COc1ccccc1-c1n[nH]c2nc(N[C@H]3CC[C@H](NS(=O)(=O)CC(C)C)CC3)ncc12		bead binding, competition bead pull-down, item: LINJ.32.3110	Leishmania donovani extract	10 µM	relative to: vehicle	relative abundance	0.68

Some of these lines once more:
Compound	tested on	assay	test system	setting	scale	measurement	value
CC(C)(C)C(=O)OCOP(=O)(OCOC(=O)C(C)(C)C)C1CCCN(O)C1=O (stereo not drawn)	EKVX					log TGI	-4.9 log M
